Experimental data gathered from unrelated publications.
Every numbered part comes from another study and shows a few of its results, in no order.

Study 1
Target: Hepatocyte nuclear factor 3-beta, forkhead domain (FOXA2, Homo sapiens, UniProt Q9Y261, residues 142-269)
Technique: protein-binding microarray
Molecule type: double-stranded DNA, one strand shown
Matrix: in vitro
Concentration: not given
Setting: k-mer, scored over probes, only values ≥0.25
Reading: higher = stronger binding
Target sequence (chain): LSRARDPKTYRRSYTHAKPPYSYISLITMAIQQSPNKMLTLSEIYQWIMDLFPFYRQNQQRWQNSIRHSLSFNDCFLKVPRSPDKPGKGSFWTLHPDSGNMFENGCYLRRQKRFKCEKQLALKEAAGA
Oligonucleotide | E-score
AAACACAG | 0.267
ATATTACA | 0.318
TTACCGAA | 0.263
TACCAACA | 0.312
ATCTAACA | 0.312
AATACTGA | 0.258
AACCAATA | 0.284
ATCTGTTA | 0.257

Study 2
Target: RNA binding protein fox-1 homolog 2, RRM domain, GST-SBP tag (RBFOX2, Homo sapiens, UniProt O43251-10, residues 100-194)
Technique: RNA Bind-n-Seq
Molecule type: RNA
Matrix: in vitro
Concentration: 365 nM
Setting: natural RNA segment, single round, ends assumed
Relative to: no-protein control
Reading: higher = stronger binding
Constant ends, left off below: GGGAGUUCUACAGUCCGACGAUC … UGGAAUUCUCGGGUGCCAA
Construct (chain): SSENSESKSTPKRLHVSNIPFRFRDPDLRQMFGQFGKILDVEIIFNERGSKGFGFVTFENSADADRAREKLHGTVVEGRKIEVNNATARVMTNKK
Oligonucleotide | RBNS enrichment (R)
UCUGAAAAUACAAAUUAUCUUCCUUUAAGAAACCUACCAUUAAGCCAGGUGUGGAUUGACACACCUUUAGUCUCAGGACUGAGGAGGCGAGGCAAGCAGAUCCCUGAGUU | 0.341
UCUAACUCUUCCUCUACAUCUUACUGUUCUGCCCGGGAUUCGUAUUAUAAUGACAGAAGAAAUGUUGUUUAGACUAUUAUUUUUGUUCGACUCUAAAAGAUUUGCCAAAU | 0.389
UUAGCAACUUAGAGUUGGUGAGUUUAAUCUUCAGUCAUACCAGCUCCAAGAGAUGAGGCCUCAGUCCAGAACCCAUCUUCAUACAAAAGCUUCAGUAGCCUGUAGGCGGC | 0.272
CUUCCAUAUAUGCUUCUAAGUAUCCUACCUCUUUGAAGAAAAGAUAGGGAUGGAGUGAGGUGACAGUGGGAAGGGACACAACUACAUGGCCUUUCAUGACCCUGGCUUAC | 0.241
UAGUGAGGAAGUGAGAGCAGAGGCUGGAAACUCAAUCCCAAGGGGAGAUCUGCCUUCCUACCCUCGGGAAGGGUCACCUAGAGGCUUCUCAGCCCCACCCUCACCCUCUG | 0.319
UUCAGCUGCCUCACUUCCUGCAAGAUUGGCCUGUGGCAUCUUUGCCUUGGGUGUUGGCCACAGGGUCAAGGGACUCUGGCCUCAGCCCAGAAGUGAGGGGAAGCUAUACA | 1.28
CAUAUAGUUAAAGGUCGUGACAAAAACUAUAACAUAACCUUGGACUUUUUCCACGGGGUCCUUUUAUCACAAAAUUAAACAAUUAUGAAACAUUCUGUCCACAAAGACUA | 0.42
AAUAUAGCAGCAUCGUUUCCUUUUUCAGUGAAAUUUCAACCAUAAGUAGAAAAGAAUUGUUUACUAUUUGACCCACAUAUUAAACAUGCUUUUUUUCUCUAUUAUGGCAA | 1.11

Study 3
Target: Hepatocyte nuclear factor 3-beta, forkhead domain (FOXA2, Homo sapiens, UniProt Q9Y261, residues 142-269)
Technique: protein-binding microarray
Molecule type: hairpin DNA
Matrix: in vitro
Concentration: not given
Setting: whole hairpin DNA, median over replicate spots
Relative to: not given
Reading: higher = stronger binding
Constant ends, left off below: GAGGCCA … TGGCCTCACACTC
Construct (chain): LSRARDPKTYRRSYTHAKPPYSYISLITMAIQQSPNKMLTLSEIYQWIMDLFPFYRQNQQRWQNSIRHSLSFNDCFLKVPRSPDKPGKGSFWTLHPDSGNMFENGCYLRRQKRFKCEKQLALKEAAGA
Oligonucleotide | median fluorescence [a.u.]
CGTAAACAACGCCTCCTGGCGTTGTTTACG | 3690
TCGAACCAACGCCTCCTGGCGTTGGTTCGA | 3170
GGCAAACAACGCCTCCTGGCGTTGTTTGCC | 3780
TGTAACCGACGCCTCCTGGCGTCGGTTACA (5mC at 30) | 3370
TGTGAACAACGCCTCCTGGCGTTGTTCACA (5mC at 34) | 3210
TGCCGACAACGCCTCCTGGCGTTGTCGGCA (5mC at 11) | 3120
TGCAACCAACGCCTCCTGGCGTTGGTTGCA (5mC at 10) | 3350
TGTAACCCGCGCCTCCTGGCGCGGGTTACA (5mC at 15 29) | 3370

Further values, each from its own experiment
Structure (SMILES) | test system | conditions | measurement | value
O=C(NC1CCN(Cc2ccc(OC3CCNCC3)c(Br)c2)CC1)c1cc2cc(F)ccc2n1S(=O)(=O)c1ccccc1 | mouse, microsomes or S9 | 2 µM, 0.5 h | remaining compound | 71.1%

Some of these lines once more (study 2):
Oligonucleotide | RBNS enrichment (R)
UAGUGAGGAAGUGAGAGCAGAGGCUGGAAACUCAAUCCCAAGGGGAGAUCUGCCUUCCUACCCUCGGGAAGGGUCACCUAGAGGCUUCUCAGCCCCACCCUCACCCUCUG | 0.319
CUUCCAUAUAUGCUUCUAAGUAUCCUACCUCUUUGAAGAAAAGAUAGGGAUGGAGUGAGGUGACAGUGGGAAGGGACACAACUACAUGGCCUUUCAUGACCCUGGCUUAC | 0.241
UCUGAAAAUACAAAUUAUCUUCCUUUAAGAAACCUACCAUUAAGCCAGGUGUGGAUUGACACACCUUUAGUCUCAGGACUGAGGAGGCGAGGCAAGCAGAUCCCUGAGUU | 0.341
UUCAGCUGCCUCACUUCCUGCAAGAUUGGCCUGUGGCAUCUUUGCCUUGGGUGUUGGCCACAGGGUCAAGGGACUCUGGCCUCAGCCCAGAAGUGAGGGGAAGCUAUACA | 1.28
